Measured values gathered from unrelated publications.
Numbered parts are unrelated; each lists some results of a single study.

Series 1 — method: aptamer microarray, sandwich; form: DNA with 2'F-ANA; sample: in vitro; concentration: 200 nM; with: Cy3 exosite-II aptamer, 400 nM; reading: higher = stronger binding; endpoint: mean fluorescence intensity; sequence: GGTTGGTGTGGTTGG
Target: Prothrombin, mature alpha-thrombin (F2, Homo sapiens, UniProt P00734)
Setting: whole 15-mer aptamer, many near background
2'F-ANA at 9 13 14: 200 a.u.
2'F-ANA at 1 3 6 9 10 12 13 14 15: 65.4 a.u.
2'F-ANA at 1 2 3 4 5 8 10 11 12 14 15: 58.2 a.u.
2'F-ANA at 2 3 4 5 7 8 9 11 13 14: 50.8 a.u.
2'F-ANA at 1 2 5 6 7 8 13 14: 44 a.u.

Series 2 — method: RNAcompete; form: RNA; sample: in vitro; concentration: 20 nM; setting: 7-mer, probes averaged, single round; baseline: mean of 7-mers; reading: higher = stronger binding; endpoint: 7-mer Z-score
Target: PABPC1L2, full length, GST fusion (mouse, UniProt A0ABA7IW68)
Target sequence (chain): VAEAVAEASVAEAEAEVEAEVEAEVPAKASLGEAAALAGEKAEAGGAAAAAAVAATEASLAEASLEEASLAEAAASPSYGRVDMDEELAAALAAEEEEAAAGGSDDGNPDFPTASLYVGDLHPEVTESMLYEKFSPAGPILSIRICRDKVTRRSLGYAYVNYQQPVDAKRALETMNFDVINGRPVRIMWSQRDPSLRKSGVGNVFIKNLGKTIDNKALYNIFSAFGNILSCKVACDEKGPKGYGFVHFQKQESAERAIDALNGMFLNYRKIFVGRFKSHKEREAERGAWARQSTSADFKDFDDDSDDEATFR
AAACAUA: 3.62
UGGAGAG: 0.0207
CCAUGAC: -0.249
AAUCGUG: 0.218
CCUUAGA: -0.209

Series 3 — method: RNA Bind-n-Seq; form: RNA; sample: in vitro; concentration: 365 nM; baseline: no-protein control; reading: higher = stronger binding; endpoint: RBNS enrichment (R)
Target: RNA binding protein fox-1 homolog 2, RRM domain, GST-SBP tag (RBFOX2, Homo sapiens, UniProt O43251-10, residues 100-194)
Setting: natural RNA segment, single round, ends assumed
Constant ends, left off below: GGGAGUUCUACAGUCCGACGAUC … UGGAAUUCUCGGGUGCCAA
Residues (chain): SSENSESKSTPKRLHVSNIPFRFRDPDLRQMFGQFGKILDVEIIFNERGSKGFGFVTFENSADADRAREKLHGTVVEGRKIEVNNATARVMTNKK
AACACACAGAAUAAAUGGCUCUUUCUCACCUUAUGUCAUGAAUGUUUUGGACAUCAAGCAUCCUAAUGGUACCUCCUUUGUACAAUGCCAAAAUGAGCCUCGGUGUCAGA: 1.51
CAUAGUAGCAAUUCUGGUGUGGCCAAGGUGUUGGCUGAAGUUUAUUCUUCAUUGGAUGUUUAAAGCAUUUACUCCAUUGUUAAGGUUGGCAUCAUAUAGUCAGUUACUGA: 0.487
CACCCAAUAAUAAGAUCAGAAGAUAUUUAAUUCUUUUCACAUUUUAUUUAUUUAAAGUGGAAAUUCUAAGCCUUCCAGUAUAUACCCUUGUCAUGAGAAAAGAGGUACAU: 0.475
UGGGUAUCAGUUUCGGUAGAGGUGCAGCAUCGUGACACUUUUGCUAACAGGUACCACUUCUGAUCACCCUGUACAUACAUGAGCCGAAAGGCACAAUCACUGUUUCAGAU: 0.526
CCACAGCCCACCUUGCAUGCAUGGCCAGCCCCUCCACUCCAGCCUGAGCCAUGUGUGCCCCUGCGGGAGGACCCAUUCAUGCCAGAAAGCUGGUAACUCCCUCCCAGCAU: 1.58
CUAAAAUCAUGGACUGGCUUUCUGGUUGGAUUUCAGGUAAGAUGUGUUUAAGGCCAGAGCUUUUCUCAGUAUUUGAUUUUUUUCCCCAAUAUUUGAUUUUUUAAAAAUAU: 0.761
CUCUUACCAGAGCUGGCUGGCCCACGGCUGGUUUUUCAAACUGAGUGAGCCCCGUAGUGAUGGCCUCUGCCUUGUGCUUGGCCUUCCCCAUUGCCUGCACCUGAAACAGC: 0.36
CCUUCCCUCUAAGUCGGUGGCUUGAGAGCCGGGGAUGUGGAUUUGGUGUGGUUACAGGGUCCCCUGCCUGCCUCCAGCCUCCGUGUGCUCCAGGGUUGUGAGCAGAGCAG: 1.83

Single results of other studies
PhoQ, residues 284 288 289 292 302 303 NLCILV  fold induction (PhoP, residues 12 14 15 18 19 SYFRT (Escherichia coli, UniProt P23836); Sort-seq, item: YFP reporter; E. coli; PhoQ-PhoP variant library, with: 10 µM Mg2+; baseline: high Mg2+ state, higher = stronger signaling): 13.3

Excerpt of the above (series 3):
UGGGUAUCAGUUUCGGUAGAGGUGCAGCAUCGUGACACUUUUGCUAACAGGUACCACUUCUGAUCACCCUGUACAUACAUGAGCCGAAAGGCACAAUCACUGUUUCAGAU: 0.526
CAUAGUAGCAAUUCUGGUGUGGCCAAGGUGUUGGCUGAAGUUUAUUCUUCAUUGGAUGUUUAAAGCAUUUACUCCAUUGUUAAGGUUGGCAUCAUAUAGUCAGUUACUGA: 0.487
CACCCAAUAAUAAGAUCAGAAGAUAUUUAAUUCUUUUCACAUUUUAUUUAUUUAAAGUGGAAAUUCUAAGCCUUCCAGUAUAUACCCUUGUCAUGAGAAAAGAGGUACAU: 0.475
